Assay results pooled from the literature.
Protocols differ between the studies behind these lines.
EGFR G719S: Epidermal growth factor receptor (EGFR, Homo sapiens, UniProt P00533, G719S)
EGFR L858R: Epidermal growth factor receptor (EGFR, Homo sapiens, UniProt P00533, L858R)

CC(C)=CC1OC(C)(C)C2C=C3C(=O)C(Cl)=CC(O)C3C3C(O)C4OC4C(=O)C132 (centres unmarked) — remaining binding (EGFR G719S; cell-free assay, competition with immobilised ligand; 10 µM): 98%
CCN1CCN(Cc2ccc(C(=O)Nc3ccc(C)c(NCc4cnc5[nH]ccc5c4OC)c3)cc2C(F)(F)F)CC1 — remaining binding (EGFR (Homo sapiens, UniProt P00533, del746-750); binding, competition with immobilised ligand; 1 µM): 4.4%
CCN1CCN(Cc2ccc(NC(=O)c3ccc(C)c(NC(=O)c4cncc(-c5cccs5)c4)c3)cc2C(F)(F)F)CC1 — remaining binding (EGFR (Homo sapiens, UniProt P00533, del747-750/T751S); binding, competition with immobilised ligand; 1 µM): 0.15%
C=CC(=O)N1CCc2ccc(-n3c(=O)ccc4cnc5ccc(-c6cnn(C)c6)cc5c43)cc21 — remaining binding (EGFR (Homo sapiens, UniProt P00533, T790M); KINOMEscan; 1 µM; relative to: DMSO control): 99%
CC(=O)N1c2ccc(-c3ccc(CNC(=O)c4cn5cc(-c6cnc(N)nc6)nc(N6CCOCC6)c5n4)cc3)cc2CC[C@@H]1C — remaining binding (EGFR L858R; KINOMEscan; 10 µM): 95%
CN1CCN(Cc2ccc(NC(=O)c3cccc(C#Cc4cnc(N)c5ncccc45)c3)cc2C(F)(F)F)CC1 — remaining binding (EGFR L858R; cell-free assay, competition with immobilised ligand; 50 nM): 65%
CNC1C[S+]2CC[S+]3CC[S+](C1)[Ru-4]321([N]=C=S)[n]2c3ccc(OC)cc3c3c4c(c5cc(F)c[n+]1c5c32)C(=O)NC4=O (centres unmarked) — remaining binding (EGFR (Homo sapiens, UniProt P00533, L858R/T790M); KinomeScan; 0.1 µM; relative to: untreated): 100%
Nc1ncc2c(n1)-c1c([nH]c3ccc(C4=CCOCC4)cc13)CCC2 — remaining binding (EGFR L858R; binding, competition with immobilised ligand; 1 µM): 67%
CNC(=O)C1CCN(c2cc(C)c(F)cc2NC(=O)c2ccc(-c3cc(O)ccc3C)c(C)c2)CC1 — remaining binding (EGFR (Homo sapiens, UniProt P00533, del747-752/P753S); binding, competition with immobilised ligand; 1 µM): 49%
COc1c(Cl)cccc1Nc1c(-c2ccncc2C#C[C@@]2(C)CCCN2C(=O)/C=C/CN(C)C)[nH]c2c1C(=O)NCC2 — remaining binding (EGFR (Homo sapiens, UniProt P00533); cell-free assay, competition with immobilised ligand; 3 µM): 0%
Cc1cnc2nc1Nc1cccc(c1)COC/C=C/COCc1cc(ccc1OCCN1CCOCC1)N2 — remaining binding (EGFR G719S; binding; 0.1 µM): 95%
